Experimental data from different studies.
Compare with care: the assays were run in different laboratories. ± gives the spread as reported.

Under “lowest cytotoxic concentration”, `CC(C)C[C@H](N)C(=O)N[C@@H](Cc1c[nH]c2ccccc12)C(=O)N[C@@H](Cc1c[nH]c2ccccc12)C(=O)N[C@@H](CCCNC(=N)N)C(=O)N[C@@H](Cc1c[nH]c2ccccc12)C(=O)N[C@@H](Cc1c[nH]c2ccccc12)C(=O)N[C@@H](CCCNC(=N)N)C(=O)N[C@@H](Cc1c[nH]c2ccccc12)C(=O)N[C@@H](CCCNC(=N)N)C(=O)O` is recorded as 256 µg/mL (HEK-293T cells; CCK-8; 4 h, 37 °C, 10% cell death).
The chance response of `O=c1ccc2ccccc2o1` is reported as 0.03% (NHEK; cell count; concentration not given, 1 h, PGC1alpha mitochondrial stress panel).
For `CC(C)C[C@H](NC(=O)[C@@H](NC(=O)[C@H](CCCCN)NC(=O)[C@H](CCCCN)NC(=O)[C@@H](N)CC(C)C)C(C)C)C(=O)N[C@@H](CCCCN)C(=O)N[C@@H](C)C(=O)N[C@@H](C)C(=O)N[C@@H](C)C(=O)N[C@@H](CCCCN)C(=O)NCCCC[C@H](NC(=O)[C@H](CCCCN)NC(=O)[C@H](C)NC(=O)[C@H](C)NC(=O)[C@H](C)NC(=O)[C@H](CCCCN)NC(=O)[C@H](CC(C)C)NC(=O)[C@@H](NC(=O)[C@H](CCCCN)NC(=O)[C@H](CCCCN)NC(=O)[C@@H](N)CC(C)C)C(C)C)C(=O)NCCCC[C@H](NC(=O)[C@H](CCCCNC(=O)[C@H](CCCCN)NC(=O)[C@H](C)NC(=O)[C@H](C)NC(=O)[C@H](C)NC(=O)[C@H](CCCCN)NC(=O)[C@H](CC(C)C)NC(=O)[C@@H](NC(=O)[C@H](CCCCN)NC(=O)[C@H](CCCCN)NC(=O)[C@@H](N)CC(C)C)C(C)C)NC(=O)[C@H](CCCCN)NC(=O)[C@H](C)NC(=O)[C@H](C)NC(=O)[C@H](C)NC(=O)[C@H](CCCCN)NC(=O)[C@H](CC(C)C)NC(=O)[C@@H](NC(=O)[C@H](CCCCN)NC(=O)[C@H](CCCCN)NC(=O)[C@@H](N)CC(C)C)C(C)C)C(=O)NCCC(=O)O`, “concentration for 100% cell killing” read 200 µM (RAW264.7; crystal violet; 24 h).
`CC[C@H](C)[C@H](NC(=O)[C@H](CC(=O)O)NC(=O)[C@@H](NC(=O)[C@H](CC(N)=O)NC(=O)[C@@H]1CCCN1C(=O)[C@@H](NC(=O)[C@@H](N)Cc1ccccc1)[C@@H](C)O)[C@@H](C)O)C(=O)N[C@H](C(=O)N[C@H](C(=O)N[C@@H](CCCNC(=N)N)C(=O)N[C@H](C(=O)N[C@H](C(=O)NCC(=O)NCC(=O)NCC(=O)N[C@@H](CC(C)C)C(=O)N[C@@H](CCCCN)C(=O)N[C@@H](CCCCN)C(=O)N[C@@H](CC(C)C)C(=O)N[C@@H](CC(C)C)C(=O)N[C@@H](CC(C)C)C(=O)N[C@@H](CC(C)C)C(=O)N[C@@H](CC(C)C)C(=O)N[C@@H](CCCCN)C(=O)N[C@@H](CCCCN)C(=O)N[C@@H](CC(C)C)C(=O)NCC(=O)O)[C@@H](C)O)[C@@H](C)O)[C@@H](C)O)[C@@H](C)CC` — result for “lowest hemolytic concentration”: > 256 µg/mL (human red blood cells; 1 h, 37 °C, 10% hemolysis).
Under necrotic cells, `Oc1ccc(C2(c3ccc(O)cc3)c3ccccc3-c3ccccc32)cc1` is recorded as “decreased” (HepG2 spheroids; propidium iodide staining; concentration not given, 24 h).
The viability of `CCNCc1nc2c(N)nc3ccccc3c2n1CC(C)(C)O` is reported as 25.9% (HFF-1; 100 µg/mL, 48 h).
The CC50 of `COc1ccc2c(c1)c(CC(=O)O)c(C)n2C(=O)c1ccc(Cl)cc1` is reported as > 100 µM (African green monkey cells; 5 days).
`Cc1cc(C(C)(C)c2ccc(O)c(C)c2)ccc1O` gave a necrotic cells of 38 ± 7.42% (HepG2 spheroids; annexin V-FITC/PI flow cytometry; 10 µM, 96 h).
`CNCCCC1c2ccccc2C=Cc2ccccc21` has a CC50 of 26.3 µM (African green monkey cells; 5 days).
`Cc1nc(-c2ccc(OCCc3cccc(F)c3)c(C(N)=O)c2)cs1` gave a selectivity ratio of 1 (HepG2; 3 (unit not given); relative to: CC50 glucose over CC50 galactose).
For `CC(C)(C)c1ccc(CN2CCN(C(c3ccccc3)c3ccc(Cl)cc3)CC2)cc1` (centres unmarked), the CC50 was 81.3 µM (African green monkey cells; 5 days).
With `CCCCCCCCCCCC(=O)N[C@H](CCC(=O)NC(CCCC(N)C(=O)O)C(=O)O)C(=O)O` (some centres unmarked) the viability was 88.4% (HFF-1; 10 µg/mL).
With `CC[C@H](C)[C@H](NC(=O)[C@H](CC(C)C)NC(=O)[C@@H]1CCCN1C(=O)[C@H](CCC(N)=O)NC(=O)[C@H](CCCCN)NC(=O)[C@H](Cc1c[nH]cn1)NC(=O)[C@H](CS)NC(=O)[C@H](CCCNC(=N)N)NC(=O)[C@H](CCCCN)NC(=O)[C@H](CO)NC(=O)[C@H](CC(C)C)NC(=O)[C@H](CO)NC(=O)[C@H](Cc1ccccc1)NC(=O)[C@H](CC(C)C)NC(=O)[C@H](CCCCN)NC(=O)[C@H](Cc1c[nH]cn1)NC(=O)[C@@H](NC(=O)[C@@H](NC(=O)[C@H](CCCCN)NC(=O)[C@H](CCC(N)=O)NC(=O)[C@H](C)NC(=O)[C@H](CCCCN)NC(=O)[C@H](CC(C)C)NC(=O)[C@H](Cc1ccccc1)NC(=O)[C@H](CC(C)C)NC(=O)[C@H](CCC(N)=O)NC(=O)[C@@H](N)CCCCN)[C@@H](C)CC)C(C)C)C(=O)N[C@@H](CO)C(=O)N[C@@H](CC(C)C)C(=O)N1CCC[C@H]1C(=O)N[C@@H](CCCNC(=N)N)C(=O)N[C@@H](CCC(N)=O)C(=O)N[C@@H](CCCNC(=N)N)C(=O)O` the HC50 was 40.2 µmol/L (human red blood cells; hemolysis).
`CC(=O)N1CCN([C@H]2CCN(C(=O)N(C)[C@H](C)c3cc(C(F)(F)F)cc(C(F)(F)F)c3)[C@@H](c3ccc(F)cc3C)C2)CC1` gave a CC50 of 17.8 µM (African green monkey cells; 5 days).
For `CC[C@H](C)[C@H](NC(=O)[C@H](CCCCN)NC(=O)[C@H](CCCNC(=N)N)NC(=O)[C@H](CCC(N)=O)NC(=O)[C@H](CCCNC(=N)N)NC(=O)CNC(=O)[C@H](Cc1ccccc1)NC(=O)[C@H](CCCNC(=N)N)NC(=O)[C@H](CCCNC(=N)N)NC(=O)[C@H](Cc1ccccc1)NC(=O)[C@H](CC(C)C)NC(=O)[C@@H]1CCCN1C(=O)[C@@H](NC(=O)[C@H](CC(N)=O)NC(=O)[C@@H](NC(=O)[C@@H](NC(=O)[C@H](CO)NC(=O)[C@H](CC(N)=O)NC(=O)[C@H](CCCNC(=N)N)NC(=O)[C@@H]1CCCN1C(=O)[C@@H](NC(=O)[C@@H]1CCCN1C(=O)[C@@H](N)Cc1ccccc1)[C@@H](C)CC)[C@@H](C)O)C(C)C)[C@@H](C)CC)C(=O)NCC(=O)NCC(=O)N[C@@H](CCCNC(=N)N)C(=O)NCC(=O)N[C@@H](CCCNC(=N)N)C(=O)N[C@H](C(=O)N[C@H](C(=O)N[C@@H](CO)C(=O)N1CCC[C@H]1C(=O)N[C@@H](Cc1ccc(O)cc1)C(=O)N[C@@H](CCCNC(=N)N)C(=O)N[C@H](C(=O)N1CCC[C@H]1C(=O)N[C@H](C(=O)N[C@@H](CC(C)C)C(=O)N[C@@H](CCCNC(=N)N)C(=O)N[C@@H](CCCNC(=N)N)C(=O)N[C@@H](Cc1c[nH]cn1)C(=O)N[C@@H](CCCNC(=N)N)C(=O)N[C@@H](Cc1ccc(O)cc1)C(=O)N[C@@H](CO)C(=O)N[C@H](C(=O)N[C@@H](Cc1ccccc1)C(=O)N[C@@H](CCCNC(=N)N)C(=O)O)[C@@H](C)CC)C(C)C)[C@@H](C)O)[C@@H](C)CC)[C@@H](C)CC`, the HC50 was 303 µmol/L (human red blood cells; hemolysis).
`CC(C)Cn1cnc2c(N)nc3ccccc3c21` has a viability of 93.7% (HFF-1; 0.1 µg/mL, 48 h).
With `CC(C)c1ccc(NC(=O)N(C)C)cc1` the IC10 was 124 µM (rat hepatoma cells; cell confluency, IncuCyte imaging; 24 h, nominal concentration).
`CC(C)(c1ccc(O)cc1)c1ccc(O)cc1`: “early apoptotic cells” 4.33 ± 2.48% (HepG2 spheroids, dissociated; annexin V-FITC/PI flow cytometry; 10 µM, 24 h).
The MHC10 of `CC(=O)N[C@@H](CCCCN)C(=O)N[C@@H](CC(C)C)C(=O)N[C@@H](CC(C)C)C(=O)N[C@@H](CCCCN)C(=O)N[C@@H](CC(C)C)C(=O)N[C@@H](CC(C)C)C(=O)N[C@@H](CCCCN)C(=O)N[C@@H](CCCCN)C(=O)N1CCC[C@H]1C(=O)N[C@@H](CC(C)C)C(=O)N[C@@H](CCCCN)C(=O)N[C@@H](CC(C)C)C(=O)N[C@@H](CC(C)C)C(N)=O` is reported as > 160 µM (human red blood cells; haemolysis; 6 h, 37 °C, 5% haematocrit in PBS).
`O=S(=O)(c1ccc(O)cc1)c1ccc(O)cc1` has a necrotic cells of 43.3 ± 7.68% (HepG2 spheroids; annexin V-FITC/PI flow cytometry; 0.01 µM, 96 h).
For `OC[C@@H]1[C@@H](O)[C@H](O)[C@@H](O)CN1CCCCCCNc1cc(-c2cccnn2)cc(C2CC2)c1`, the viability was 100% (A549 expressing ACE2; WST-1; 25 µM, 3 days).
For `Cc1nc2ccccn2c(=O)c1CCN1CCC(=C(c2ccc(F)cc2)c2ccc(F)cc2)CC1`, the CC50 was 10.2 µM (African green monkey cells; 5 days).
`CN(C(=O)n1cnc(-c2ccc[n+]([O-])c2)c1)C1CCCCC1` gave a concentration of 0.101 ± 0.0012 µM (COS-7 expressing human FAAH; culture supernatant; 100 nM, 3 h).
`COc1cc2c(c(OC)c1OC)-c1ccc(OC)c(=O)cc1[C@@H](NC(C)=O)CC2` has a cytostasis of 35% (human peripheral blood lymphocytes; in vitro micronucleus test; 0.05 µg/mL, 3 h exposure, -S9, 27 h harvest).
`COc1ccc2c(c1)N(C[C@H](C)CN(C)C)c1ccccc1S2` gave a CC50 of 22.9 µM (African green monkey cells; 5 days).
`CC(=O)N[C@@H](CCCCN)C(=O)N[C@@H](CC(C)C)C(=O)N[C@@H](CC(C)C)C(=O)N[C@@H](CCCCN)C(=O)N[C@@H](CC(C)C)C(=O)N[C@@H](CC(C)C)C(=O)N[C@@H](CCCCN)C(=O)N[C@@H](CCCCN)C(=O)N1CCC[C@H]1C(=O)N[C@@H](CC(C)C)C(=O)N[C@@H](CCCCN)C(=O)N[C@@H](CC(C)C)C(=O)N[C@@H](CC(C)C)C(=O)N[C@@H](CCCCN)C(=O)N[C@@H](CCCCN)C(N)=O` has an MHC10 of > 160 µM (human red blood cells; haemolysis; 6 h, 37 °C, 5% haematocrit in PBS).
`N#C[C@@]1(n2ccc(N)nc2=O)O[C@H](CO)[C@@H](O)[C@H]1O` gave a micronucleated cells of 0.44% (CHO; 250 µM, without S9).
For `Cc1cc(-c2ccc(/N=N/c3ccc4c(S(=O)(=O)O)cc(S(=O)(=O)O)c(N)c4c3O)c(C)c2)ccc1/N=N/c1ccc2c(S(=O)(=O)O)cc(S(=O)(=O)O)c(N)c2c1O`, the CC50 was 18 µM (African green monkey cells; 5 days).
`Nc1ncnc2c1ncn2[C@@H]1O[C@@H]2COP(=O)(O)O[C@H]3[C@@H](O)[C@H](n4cnc5c(N)ncnc54)O[C@@H]3COP(=O)(O)O[C@H]2[C@H]1O` has a viability of 90.5% (HFF-1; 100 µg/mL).

For quick reference, copied from above:
The CC50 of `COc1ccc2c(c1)c(CC(=O)O)c(C)n2C(=O)c1ccc(Cl)cc1` is reported as > 100 µM (African green monkey cells; 5 days).
`Cc1cc(C(C)(C)c2ccc(O)c(C)c2)ccc1O` gave a necrotic cells of 38 ± 7.42% (HepG2 spheroids; annexin V-FITC/PI flow cytometry; 10 µM, 96 h).
